Results from different studies.
Lines come from different studies, so protocols differ. ± gives the spread as reported. Converted amounts (≈) assume the structure as drawn. The star is where a group is joined.
OPRK1: Kappa-type opioid receptor (OPRK1, Homo sapiens, UniProt P41145)
Kelch domain-containing protein 2: Kelch domain-containing protein 2 (UniProt Q9Y2U9)
ESR1: Estrogen receptor (ESR1, Homo sapiens, UniProt P03372)
Aequorin-1 C152S/C159S/C187S: Aequorin-1 (Aequorea victoria, UniProt P07164, C152S/C159S/C187S)
ESR2: Estrogen receptor beta (ESR2, Homo sapiens, UniProt Q92731)
CNR2: Cannabinoid receptor 2 (CNR2, Homo sapiens, UniProt P34972)

anthraquinone-neomycin  heat capacity change (poly(dA)•2poly(dT) triplex; DNA binding, isothermal titration calorimetry; concentration not given, pH 6.8, KCl 150 mM): -231 ± 6 cal/(mol·K)
CC(C)[C@@H](CN1CCN(c2cccc(O)c2)[C@@H](C)C1)NC(=O)c1ccc(Oc2cccc(F)c2)cc1  Ke (OPRK1; antagonist; CHO; with: U69593): 1.48 ± 0.51 nM
AEHWIDVRVPEQYQQEHVQGA  fraction of protein bound (Kelch domain-containing protein 2; native mass spectrometry; peptide, 200 mM ammonium acetate; 20 µM Kelch domain-containing protein 2, pH 7; reference: total Kelch domain-containing protein 2 signal): 1.6%
COc1ccccc1N1CCN(CCN(C(=O)c2ccc(F)cc2)c2ccccn2)CC1  efficacy (GPR32 (Homo sapiens, UniProt O75388); β-arrestin recruitment, agonist, PathHunter; CHO cells expressing GPR32; concentration not given; reference: vehicle): 20.5%
Cc1cc(-c2ccc(-c3cc(C)c(O)c(C)c3)[se]2)cc(C)c1O  efficacy (ESR1; antagonist; HEK293T; highest tested concentration, with: estradiol 10 nM; reference: estradiol alone): 148 ± 2%
O=C(Cc1ccccc1)NC1CCOC1=O (stereo not drawn)  activation (Transcriptional activator protein LasR (lasR, Pseudomonas aeruginosa, UniProt P25084); reporter gene, agonist; Escherichia coli JLD271/pJN105L/pSC11; 100 µM; reference: OdDHL 100 µM): -3%
CC(C)c1ccc(O)cc1  Vmax (UDP-glucuronosyltransferase 1A9 (UGT1A9, Homo sapiens, UniProt O60656); substrate; pH 7.4, 37 °C): 2180 pmol/mg/min
Ac-DDEPIYAELADIT-NH2 (N-acetyl, C-amide)  kcat/KM (Csk (native); extrapolated from GST-Csk value; peptide): 95000 M⁻¹ s⁻¹
CSc1ccc(Nc2ccc3c(c2)C(c2ccccc2F)=NC(C)C(=O)N3)cc1 (stereo not drawn)  inhibition (Alpha-2A adrenergic receptor (ADRA2A, Homo sapiens, UniProt P08913); ligand displacement, radioligand; 10 µM): 65%
Oc1ccc(Cl)cc1-c1cc(Cl)c(Cl)c(Cl)c1Cl  detection limit (Aequorin-1 C152S/C159S/C187S; aequorin bioluminescence, inhibitor; 2 h, with: coelenterazine): 0.033 µM
YFFDRSS (cyclic, disulfide)  binding titer (HIV-1 neutralising antibody 4E10; phage binding, M13 phage ELISA; peptide; concentration not given; lower = stronger binding): 2.2e+07 M13/mL
Cc1cc(-c2c[se]cc2-c2ccc(O)c(C)c2)ccc1O  efficacy (ESR2; antagonist; HEK293T; highest tested concentration, 24 h, with: estradiol 10 nM; reference: estradiol alone): 50 ± 5%
O=C(O)c1ccccc1-c1cccnc1  ΔTm (pqsE (Pseudomonas aeruginosa, UniProt P20581, E182A); thermal stability, DSF): 10 °C
QRSATGTSSRSMGG  fraction of protein bound (Kelch domain-containing protein 2; native mass spectrometry; peptide, 200 mM ammonium acetate; 20 µM Kelch domain-containing protein 2, pH 7; reference: total Kelch domain-containing protein 2 signal): 1.7%
NC(=O)CN1CCC[C@@H](NC(=O)c2nn(Cc3ccc(F)cc3)c3ccccc23)C1  Emax (CNR2; calcium mobilization, agonist; CHO-K1 expressing Gαq16; reference: CP55,940 maximum): 93 ± 7%
Oc1ccc(-c2cc(Br)c(-c3ccc(O)c(Cl)c3)[se]2)cc1Cl  efficacy (ESR1; antagonist; HEK293T; highest tested concentration, with: estradiol 10 nM; reference: estradiol alone): 19 ± 2%
N=C(N)NCCC[C@@H]1NC(=O)[C@@H]2CCCN2C(=O)[C@H]2CCCN2C(=O)[C@H](Cc2ccccc2)NC(=O)[C@H](Cc2c[nH]cn2)NC(=O)[C@H](CC(N)=O)NC(=O)[C@H](Cc2ccccc2)NC(=O)[C@H](Cc2ccccc2)NC1=O  activity (Melanocortin receptor 5 (Mus musculus, UniProt P41149); agonist?; concentration not given): inactive
CC(C)[C@@H](CN1CCN(c2cccc(O)c2)[C@@H](C)C1)NC(=O)c1ccc(Oc2ccccc2O)cc1  Ke (OPRK1; antagonist; CHO; with: U69593): 1.06 ± 0.26 nM
O[C@H](CN1CC[C@H](CCOC(c2ccccc2)c2ccccc2)[C@@H](O)C1)c1ccc(F)cc1  Ki (Transporter (Slc6a2, Rattus norvegicus, UniProt Q63380); noradrenaline uptake, inhibitor; rat hippocampus; with: [3H]noradrenaline): 0.0206 µM
O=c1[nH]c(/C=C/c2ccc[nH]2)c([N+](=O)[O-])c(=O)[nH]1  Ks (Riboflavin synthase (ribC, Escherichia coli, UniProt P0AFU8); enzyme activity, substrate; Escherichia coli, recombinant riboflavin synthase; pH 7.0): 2.9 ± 0.2 µM
CCCCN(CCCC)CC(O)c1cc(Cl)cc2c1-c1ccc(Cl)cc1/C2=C/c1ccc(Cl)cc1 (stereo not drawn)  inhibition of binding (CRT (Plasmodium falciparum, UniProt W7FI62); scintillation proximity; nanodiscs; 10 µM, with: [3H]-chloroquine and [3H]-piperaquine): no inhibition
c1ccc([C@H]2CO2)cc1  apparent Kd (Epoxide hydrolase 1 (Solanum tuberosum, UniProt Q41415); substrate, tryptophan fluorescence; (S)-enantiomer): 410 ± 90 µM
CC(C)[C@@H](CN1CCN(c2cccc(O)c2)[C@@H](C)C1)NC(=O)c1ccc(Oc2cccc(O)c2)cc1  Ke (OPRK1; antagonist; CHO; with: U69593): 1.85 ± 0.51 nM
C[C@](O)(Cn1ccc2cc(F)ccc21)C(=O)Nc1ccc(C#N)c(C(F)(F)F)c1  IC50? (Mineralocorticoid receptor (NR3C2, Homo sapiens, UniProt P08235); transactivation, antagonist; HEK293; with: aldosterone): ~10 µM
CN[C@@](C)(C[18F])C(=O)O  tracer uptake (DU-145 tumour model; host not given, pancreas; 2 h, tumour-bearing): 22 %ID/g
C=C(C)[C@@H]1CCC(C)=C[C@H]1c1c(O)cc(CCCCC)cc1O  remaining fluorescence (Fatty acid-binding protein, liver (FABP1, Homo sapiens, UniProt P07148); binding, DAUDA displacement; concentration not given; reference: no competitor): 46 ± 6.1%
CC[C@H](C)[C@H](NC(=O)[C@H](CCCCN)NC(=O)[C@H](Cc1ccccc1)NC(=O)[C@H](CCCCNC(=O)[C@H](CC(C)C)NC(=O)[C@@H]1CCCN1C(=O)[C@H](CCCCN)NC(=O)CCS[C@@H]1O[C@H](CO)[C@H](O)[C@H](O)[C@H]1O)NC(=O)[C@H](CC(C)C)NC(=O)[C@@H]1CCCN1C(=O)[C@H](CCCCN)NC(=O)CCS[C@@H]1O[C@H](CO)[C@H](O)[C@H](O)[C@H]1O)C(N)=O  MIC (PA-I galactophilic lectin (lecA, Pseudomonas aeruginosa, UniProt Q05097); hemagglutination, inhibitor; rabbit erythrocytes; 30 min, 4 °C): 630 µM (≈ 1080 µg/mL)
Ac-QDEVD-pNA (N-acetyl, C-pNA; pNA = O=[N+]([O-])c1ccc(N*)cc1)  kcat (Caspase-6 (CASP6, Homo sapiens, UniProt P55212); substrate, colorimetric p-nitroanilide release; pH 7.25): 1.53 ± 0.167 s⁻¹
O=[N+]([O-])c1ccc(OP(=O)(O)Oc2ccc([N+](=O)[O-])cc2)cc1  remaining activity (Liver carboxylesterase 1 (CES1, Homo sapiens, UniProt P23141); irreversible inhibitor; 5× IC50 or 200 µM, 1 h, preincubation then inhibitor removal, with: o-nitrophenyl acetate substrate): 99.9%
CC1(CCN2CCc3ccccc3C2)Cc2cc(Cl)ccc2C1=O (single isomer, unassigned; (-))  selectivity ratio (5-hydroxytryptamine receptor 7 (HTR7, Homo sapiens, UniProt P34969); reference: HTR7 over other receptors except 5-HT1A): > 100 fold
CNc1ccc2oc(C[C@H]3O[C@@]4(CC[C@H]3C)O[C@H]([C@H](C)C(=O)c3ccc[nH]3)[C@H](C)C[C@H]4C)nc2c1C(=O)O  phosphorylation level (Yes kinase, rat; item: Yes pY416; 1 µM, 5 min; reference: untreated control): 137 ± 18%
O=P(O)(O)OC[C@@H](O)[C@@H](O)CO  (kcat/Km)/Kd (Orotidine 5'-phosphate decarboxylase (Saccharomyces cerevisiae S288c, UniProt P03962, D37G); activated decarboxylation of FO, activator; pH 7.0, 25 °C, upper limit, ionic strength 0.15): 0.0089 ± 0.0003 M⁻² s⁻¹
CC[C@H]1O[C@]2(C)[C@H](OC(C)=O)[C@@]1(C)O[C@@H](/C=C/C=C/C=C/c1oc(=O)cc(OC)c1C)[C@@H]2O  dwell time rise constant (atpD, in F1Fo complex (Escherichia coli, UniProt P0ABB4); ATP hydrolysis, single-molecule FRET; liposome-reconstituted F1Fo-ATPase): 7.8 ± 1.2 ms
C=C1C[C@H](C)C[C@@H]2CC=C[C@@H](C/C=C\C(=O)O[C@H]([C@@H](O)/C=C/[C@@H]3CC(C)=CCO3)C[C@@H]3O[C@H]3[C@@H](O)C1)O2  [3H]paclitaxel bound per tubulin (microtubules (bovine, glutaraldehyde-fixed); competitor; 25 µM, with: [3H]paclitaxel 2.5 µM): 0.5 ± 0.018
RYRDPTGMYY  kcat (Serine/threonine-protein kinase pim-1 (PIM1, Homo sapiens, UniProt P11309); substrate, coupled enzyme; peptide; pH 7.4, room temperature, with: 1 mM ATP, 20 mM MgCl2): 1.8 ± 0.1 s⁻¹
CC(C)(NC(=O)c1nn(Cc2ccc(F)cc2)c2ccccc12)C1CCCN(C(N)=O)C1 (stereo not drawn)  Emax (CNR2; calcium mobilization, agonist; CHO-K1 expressing Gαq16; reference: CP55,940 maximum): 37 ± 3%
Cc1cc(-c2cc(-c3ccc(O)c(C)c3)c(-c3ccc(O)c(C)c3)[se]2)ccc1O  efficacy (ESR1; antagonist; HEK293T; highest tested concentration, with: estradiol 10 nM; reference: estradiol alone): 104 ± 29%
Oc1c(Cl)ccc(Cl)c1-c1cc(Cl)c(Cl)cc1Cl  detection limit (Aequorin-1 C152S/C159S/C187S; aequorin bioluminescence, inhibitor; 2 h, with: coelenterazine): 0.011 µM
SVSVGMKPSPRP  binding titer (HIV-1 neutralising antibody 4E10; phage binding, M13 phage ELISA; peptide; concentration not given; lower = stronger binding): 4.3e+07 M13/mL
MQPASEGTGIIAGGA  fraction of protein bound (Kelch domain-containing protein 2; native mass spectrometry; peptide, 200 mM ammonium acetate; 20 µM Kelch domain-containing protein 2, pH 7; reference: total Kelch domain-containing protein 2 signal): 0.6%
Oc1cc(-c2ccc(-c3ccc(F)c(O)c3)[se]2)ccc1F  efficacy (ESR2; antagonist; HEK293T; highest tested concentration, 24 h, with: estradiol 10 nM; reference: estradiol alone): 79 ± 3%
CC(C)C[C@H](NC(=O)[C@H](CO)NC(=O)[C@H](CC(C)C)NC(=O)[C@@H]1CCCN1C(=O)CNC(=O)[C@H](Cc1ccccc1)NC(=O)Cc1ccc2ccccc2c1)C(=O)N[C@@H](CCCNC(=N)N)C(=O)N[C@@H](CO)C(=O)N[C@@H](CCCCN)C(=O)O  hydrolysis product (Matrix metalloproteinase-9 (MMP9, Homo sapiens, UniProt P14780); substrate, HPLC; 500 µM, 72 h, pH 7.5, 37 °C): 100%
C[N+](C)(C)CCOC(N)=O.[Cl-]  efficacy (Chrnb2/Chrna6 (Rattus norvegicus, UniProt P12390+P43143, L273S/L280S/L348M/R364A/R365A/R367A); ion current, agonist; concentration not given, rat receptor, unit not given; reference: acetylcholine maximum current): 0.87 ± 0.04
C[C@H]1CC[C@@H](NC(=O)c2cc3cc(-c4cccs4)cnc3n(Cc3ccc(F)cc3)c2=O)CC1  affinity ratio (CNR2; [3H]CP-55,940 displacement; reference: cis over trans isomer): 68 fold
Nc1nnc(S)s1  remaining activity (Peptide deformylase (def, Escherichia coli, UniProt P0A6K3); 500 µM, over 2 days, pH 7.0, stock in 50 mM potassium phosphate; reference: control): 103%
CC(C)(NC(=O)c1nn(CCC2CCCC2)c2ccccc12)c1cccc(C(N)=O)c1  Emax (CNR2; calcium mobilization, agonist; CHO-K1 expressing Gαq16; reference: CP55,940 maximum): 29 ± 11%
COP(=O)(OC)OCc1ccc(C=O)o1  P50 change (Hemoglobin subunit alpha, with sickle beta chain (HBA1, Homo sapiens, UniProt P69905); oxygen affinity; sickle red cell lysate; 2 mM; reference: untreated): 35.7 ± 8.1%
CC12CC3CC1(C)C1(C)CC3(N)CC21C.Cl  current recovery after washout (Glutamate NMDA receptor; Grin1/Grin2a (Grin1/Grin2a, Rattus norvegicus, UniProt P35439+Q00959); NMDA current unblock, whole-cell patch clamp; tsA201 cells; 10 µM, holding potential -60 mV, with: 100 µM NMDA plus 10 µM glycine): 94.9 ± 2.2%
